# Published values of several laboratories.
# Each numbered part is a random draw from the data of one study; scales do not carry over between parts. Changes are numbered by the printed parent chain.

# Study 1 — target: CCNA2, cyclin fold, Cln2 fusion (human); technique: yeast growth competition, sequencing; matrix: yeast; setting: strong parent motif; baseline: not given; direction: higher = stronger binding
# Starting sequence: CDC25A docking peptide (human); PPHRRRLLFACSP
Change,normalised enrichment score
H3A,5.04
S12N,2.99
P1K,3
P13K,1.33
S12M,2.51
P13I,1.78
L8P,0.642
P13C,2.67
L8F,2.71
P1C,1.8
L7I,2.52
R6L,2.21
L7Q,0.939
P2M,2.08
C11S,3.24
P2F,1.87
H3R,3.48
F9H,0.984
H3S,5.29
P13L,2.27
R6Q,2.18
C11A,3.09
S12T,1.92
R4S,1.18
H3K,2.07

# Study 2 — technique: protein-binding microarray; molecule type: double-stranded DNA, one strand shown; matrix: in vitro; tested at: 0.8 µM; setting: whole 60-bp probe, no competitor; direction: higher = stronger binding; all sequences stand within: … GTCTTGATTCGCTTGACGCTGCTG
# Target: Centromere-binding protein 1, full length, N-terminal tag (CBF1, Saccharomyces cerevisiae, UniProt P17106, residues 1-351)
# Sequence of UniProt P17106 (whole entry, looked up): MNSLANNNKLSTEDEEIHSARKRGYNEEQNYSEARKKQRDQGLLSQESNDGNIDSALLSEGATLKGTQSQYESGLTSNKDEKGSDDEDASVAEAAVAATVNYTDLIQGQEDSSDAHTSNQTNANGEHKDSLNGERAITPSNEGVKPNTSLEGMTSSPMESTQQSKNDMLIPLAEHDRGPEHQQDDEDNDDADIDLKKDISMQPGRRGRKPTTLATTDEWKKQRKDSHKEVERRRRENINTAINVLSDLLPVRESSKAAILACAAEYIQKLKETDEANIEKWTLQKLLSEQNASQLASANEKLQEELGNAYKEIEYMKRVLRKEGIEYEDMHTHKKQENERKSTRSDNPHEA
Strand,fluorescence intensity
CCTAACTACTATATTCACGTTCGATAGCTTCGTACA,547 a.u.
GAAAAGAACGCACATCAGCAGAATAATGGGAGGTAG,552 a.u.
CTACCAGTATACCGTCACATGCGGTGTAACGTGTTC,2100 a.u.
GAATATAATGTTTGCTTCATCACCTTTTTTTACTAG,507 a.u.
CTATGGTATATGCTGCACGTGTAGTCTAATGTTTTC,8180 a.u.
GAAATATTTCTCTGTCACCCGGCCTCTATTTTCTAG,559 a.u.
CTAAGCACGTGAGTATACGTGATTAAGCACACATTC,5760 a.u.
GAAGGGCAATTTCCAAACGTGCAAAGTGTTATCTAG,550 a.u.
GAAACAAAAAATGCTCACCTGACCTTATTCACCTAG,3170 a.u.
CTAGTACCTCTAGTTTTGGTGATGAAGCAAGACTTC,507 a.u.
TGTACGAAGCTATGTGATCTTCATATAGTAGTTAGG,540 a.u.
GAAGATTCAAATAGTCACGTGATCTCTTTTAGATAG,61200 a.u.
GAATGACAAGACTGCCACGTTGATCGCTGCGCTTAG,541 a.u.
CTACTTTACCGTCATGCACGTGCGCCGCGAAAATTC,11600 a.u.
CCTAACTACTATAATAACGTGAAATAGCTTCGTACA,612 a.u.
CTAATTCAGGGATGGCTCATCACGAACAGCAAATTC,582 a.u.
CTACTCTCACCTCGTGATGTTACGAACGCCACGTTC,2400 a.u.
GAAATGGTATGGGTGCACGTGGGATTCTAGGGGTAG,3000 a.u.
CCTAACTACTATACACGTGCGATATAGCTTCGTACA,5400 a.u.
CTAAAATATCGCAAGCACGTTTTTACTCAGCCCTTC,693 a.u.
CTAACGAAACACAACCACGTTCTTAAATCTCGATTC,625 a.u.
GAATACTCTATACAGCTGATAAACTCTGTCTAATAG,556 a.u.

# Study 3 — target: UBE2O UBC core domain (UniProt Q9C0C9); technique: yeast two-hybrid; matrix: yeast; setting: mostly zero background; baseline: not given; direction: higher = stronger interaction
# B1: SHPRH RING domain (UniProt Q149N8); chain KTSGGVNPEPCPICARQLGKQWAVLTCGHCFCNECISIIIEQYSVGSHRSSIKCAICRQTTSHKEISY
# B2: TRIM74 RING domain (UniProt Q86UV6); chain SLLELEDWLQCPICLEVFKESLMLQCGHSYCKGCLVSLSYHLDTKVRCPMCWQVVDGSSSLP
# B3: CBLL1 RING domain (UniProt Q75N03); chain GEKDDTPVHFCDKCGLPIKIYGRMIPCKHVFCYDCAILHEKKGDKMCPGCSDPVQRIEQCT
# B4: MDM2 RING domain (UniProt Q00987); chain TQDKEESVESSLPLNAIEPCVICQGRPKNGCIVHGKTGHLMACFTCAKKLKKRNKPCPVCRQPIQMIVLTYFP
# B5: RNF7 RING domain (UniProt Q9UBF6); chain AICRVQVMDACLRCQAENKQEDCVVVWGECNHSFHNCCMSLWVKQNNRCPLCQQDWVVQRIGK
# B6: MARCHF2 RING domain (UniProt Q9P0N8); chain RLLSTVIRALDTPSDGPFCRICHEGANGECLLSPCGCTGTLGAVHKSCLEKWLSSSNTSYCELCHTEFAVEKRPRPLTEWL
# B7: TRIM68 RING domain (UniProt Q6AZZ1); chain LVEAIVEEVACPICMTFLREPMSIDCGHSFCHSCLSGLWEIPGESQNWGYTCPLCRAPVQPRNLRP
# B8: TRIM28 RING domain (UniProt Q13263); chain GAEALELLEHCGVCRERLRPEREPRLLPCLHSACSACLGPAAPAAANSSGDGGAAGDGTVVDCPVCKQQCFSKDIVE
# B9: RNF32 RING domain (UniProt Q9H0A6); chain VQALRRETHECSICLAPLSAAGGQRVGAGRRSREMALLSCSHVFHHACLLALEEFSVGDRPPFHACPLCRSCYQKKILEC
# B10: RNF130 RING domain (UniProt Q86XS8); chain DKETDPDFDHCAVCIESYKQNDVVRILPCKHVFHKSCVDPWLSEHCTCPMCKLNILKALGIV
# B11: RNF115 RING domain (UniProt Q9Y4L5); chain TQEQVDMGLECPVCKEDYTVEEEVRQLPCNHFFHSSCIVPWLELHDTCPVCRKSLNGEDSTR
# Target sequence (chain): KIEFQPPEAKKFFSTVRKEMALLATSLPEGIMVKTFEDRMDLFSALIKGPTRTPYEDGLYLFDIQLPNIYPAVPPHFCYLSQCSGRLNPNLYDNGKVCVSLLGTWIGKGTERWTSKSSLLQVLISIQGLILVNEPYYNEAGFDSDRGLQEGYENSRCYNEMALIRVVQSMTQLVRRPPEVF
Sequence,lacZ reporter activity
B1 (SHPRH RING domain),0
B2 (TRIM74 RING domain),0
B3 (CBLL1 RING domain),0
B4 (MDM2 RING domain),0
AAQLLEEKLTCAICLGLYQDPVTLPCGHNFCGACIRDWWDRCGKACPECREPFPDGAELR (TRIM65 RING domain (UniProt Q6PJ69)),0
MEEMEEELKCPVCGSFYREPIILPCSHNLCQACARNILVQTPESESPQSHRAAGSGVSDY (TRIM9 RING domain (UniProt Q9C026)),0
B5 (RNF7 RING domain),0
B6 (MARCHF2 RING domain),0
PLRRLQEEKLCKICMDRHIAVVFIPCGHLVTCKQCAEAVDRCPMCSAVIDFKQRVF (BIRC8 RING domain (UniProt Q96P09)),0
B7 (TRIM68 RING domain),0
B8 (TRIM28 RING domain),0
KITELNPHLMCALCGGYFIDATTIVECLHSFCKTCIVRYLETNKYCPMCDVQVHKTRPLL (PCGF2 RING domain (UniProt P35227)),0
B9 (RNF32 RING domain),0
B10 (RNF130 RING domain),0
B11 (RNF115 RING domain),0
SNNDLASLFECPVCFDYVLPPILQCQSGHLVCSNCRPKLTCCPTCRGPLGSIRNLA (SIAH1 RING domain (UniProt Q8IUQ4)),0

# Study 4 — technique: DHFR PCA, deep sequencing; matrix: yeast; added: (+)-ABA 0.0091 µM; baseline: wild-type fitted maximum; direction: higher = stronger binding
# Target: ABI1, truncated, D143A, DHFR fusion (Arabidopsis thaliana)
# Setting: methotrexate growth selection, single substitutions
# Starting sequence: PYL1, truncated, DHFR fusion (Arabidopsis thaliana); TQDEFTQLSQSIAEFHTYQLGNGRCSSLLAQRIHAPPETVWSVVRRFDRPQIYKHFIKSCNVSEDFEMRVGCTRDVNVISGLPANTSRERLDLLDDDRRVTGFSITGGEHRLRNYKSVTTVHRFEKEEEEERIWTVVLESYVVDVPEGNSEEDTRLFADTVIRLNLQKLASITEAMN
Change,relative binding score
E130T,35.2%
G21Q,26.5%
N114H,-2.66%
I33H,-0.603%
Q167P,2.01%
V100Y,-11%
E89N,-13.5%
A84V,24.9%
D48N,5.3%
I12G,-4.59%
Q19I,4.9%
E128V,7.61%
Q10Y,5.47%
I57P,-0.57%
R111D,-10.4%
G107W,-2.98%
R123C,3.01%
A170N,-8.64%
N165Y,0.84%
V143Q,-1.85%

# Study 5 — technique: protein binding microarray; molecule type: double-stranded DNA, one strand shown; matrix: in vitro; tested at: not given; baseline: not given; direction: higher = stronger binding
# Target: Histone acetyltransferase KAT6A, winged helix 2, GST fusion (KAT6A, Homo sapiens, UniProt Q92794, residues 85-181)
# Setting: 8-mer, flanks averaged, mean of 2 arrays, mostly near background
# Construct (chain): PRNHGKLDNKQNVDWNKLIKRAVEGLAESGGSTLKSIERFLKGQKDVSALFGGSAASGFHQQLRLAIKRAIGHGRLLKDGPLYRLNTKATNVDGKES
Strand,E-score
TAAGGGAA,-0.152
AACGTCAC,-0.105
CAGGCTTA,0.02
AGTCTAAA,-0.156
CTTAGTGC,0.121
AGTGTTCG,-0.0375
CGTTGTAG,0.0972
CCGACGAG,0.157
CGCTGACG,0.0143
AATATGTC,-0.0331
CCATCTAA,-0.0232
GTTGTGCA,-0.0638
ATTGCATC,0.11
CTTCGCCA,0.161
AGAATGAT,-0.183
GCTAGAGA,0.0107
GGAGTACA,-0.0274
ATAATTTA,0.115
GGATGGTA,0.0145
GGAGATTA,-0.0762

# A few entries again (study 2):
Strand,fluorescence intensity
GAAATATTTCTCTGTCACCCGGCCTCTATTTTCTAG,559 a.u.
CTAAGCACGTGAGTATACGTGATTAAGCACACATTC,5760 a.u.
GAAGGGCAATTTCCAAACGTGCAAAGTGTTATCTAG,550 a.u.
GAAACAAAAAATGCTCACCTGACCTTATTCACCTAG,3170 a.u.
CTAGTACCTCTAGTTTTGGTGATGAAGCAAGACTTC,507 a.u.
TGTACGAAGCTATGTGATCTTCATATAGTAGTTAGG,540 a.u.
